Results pooled from the literature.
Each line is one published result; not all experiments were run side by side. “And” joins repeats or separate records; there may be more than shown.

Compound	assay	test system	setting	how to read	measurement	result
NC(=O)c1cnc2[nH]ccc2c1N[C@@H]1[C@@H]2CC3C[C@H]1C[C@@](O)(C3)C2	flow cytometry, measured: regulatory T cells	Japanese healthy subjects, peripheral blood	oral, 30 mg twice daily, day 7		change from baseline	-0.18%
Cl.N[C@@H](Cc1ccc(Oc2nnc(-c3ccccc3)nn2)cc1)C(=O)O	iEDDA cycloaddition	aqueous DMSO 25 %	37 °C, together with: TCO-OH 15 mM		kobs	1.2 s⁻¹
CO[C@H]1C[C@@H]2CC[C@@H](C)[C@@](O)(O2)C(=O)C(=O)N2CCCC[C@H]2C(=O)O[C@H]([C@H](C)C[C@@H]2CC[C@@H](O)[C@H](OC)C2)CC(=O)[C@H](C)/C=C(\C)[C@@H](O)[C@@H](OC)C(=O)[C@H](C)C[C@H](C)/C=C/C=C/C=C/1C	oral glucose tolerance test	healthy adult horses	dose not given, 120 min, baseline before treatment		blood glucose	163 mg/dL
O=S1(=O)CC(Sc2ccccc2)c2ccccc21 (centres unmarked)	CoA-CPM signal reduction, CPM fluorescence thiol	cell-free biochemical	assay interference counter-screen, together with: CoA replacing acetyl-CoA		IC50	> 125 µM
COc1ccccc1[C@H](Cn1c(=O)n(C(C)(C)C(=O)O)c(=O)c2c(C)c(-c3ncco3)sc21)OC1CCOCC1	[1-13C]acetate infusion, isotopomer analysis	overweight or obese healthy men, plasma VLDL-TG palmitate	oral, 200 mg single dose, 0 h relative to dose, fasted baseline		fractional hepatic DNL	6.35 % new palmitate
N#Cc1ccn2c(-c3ccncc3)c(-c3ccc(F)cc3)nc2c1	kinase binding, competitor, MIB/MS competition, measured: CMK2	Candida albicans cell lysate	1 µM	reference: DMSO	log2 fold change	0.0166
CN(C)C(=O)c1cc2cnc(Nc3ccc(N4CCNCC4)cn3)nc2n1C1CCCC1	RNA-seq GSEA, measured: HALLMARK_UV_RESPONSE_DN gene set	MB002 tumour	concentration not given	reference: vehicle, direction not given	enrichment score	-0.333
COc1ccc(-c2ccc3c(N4CCOC[C@@H]4C)nc(N4CCOC[C@@H]4C)nc3n2)cc1COC(=O)CCOCCOCCOCCONC(=O)c1ccc(F)c(F)c1Nc1ccc(I)cc1F	flow cytometry	JAK2V617F myelofibrosis mouse, splenocytes	40 mg/kg daily, seven days		pAKT level	decreased
O=S1(=O)C=C(Sc2ccc(Cl)cc2)c2ccccc21	CoA-CPM signal reduction, CPM fluorescence thiol	cell-free biochemical	assay interference counter-screen, together with: CoA replacing acetyl-CoA		IC50	> 125 µM
N#Cc1ccc2c(c1)[C@H]1CCCN(C(=O)c3ccc4[nH]cnc4c3)[C@H]1C2		human, urine	360 mg, 24 h, day 1 over day -1	reference: placebo and baseline	total urinary corticosteroids	111 % change
CC(C)C[C@H](NC(=O)[C@H](CC(C)C)NC(=O)C(C)(C)NC(=O)[C@@H](NC(=O)[C@H](CCC1CCCCC1)NC(=O)[C@@H]1C[C@H](C)CN1C(=O)c1ccc(F)cc1)[C@H](O)C(C)C)C(=O)NC(C)(C)C(=O)NC(C)(C)C(=O)NCCC(=O)N[C@@H](C)CN(C)C		small unilamellar vesicles	concentration not given		calcein leakage	22.5%
C[C@H]1O[C@@H](O[C@H]2CC[C@@]3(C)[C@@H](CC[C@]4(C)[C@@H]3C=C[C@]35OC[C@@]6(CCC(C)(C)C[C@H]63)[C@@H](O)C[C@]54C)[C@]2(C)CO)[C@H](O)[C@@H](O[C@@H]2O[C@H](CO)[C@@H](O)[C@H](O)[C@H]2O)[C@H]1O		chronic-plus-binge ethanol mice, plasma	oral, 10 mg/kg/day for 7 d, 168 h		AST activity	44.5 U/L and 44 U/L and 43.1 U/L and 36.6 U/L and 42.5 U/L
CSCCNc1nc(SCCC(F)(F)F)nc2c1ncn2[C@@H]1O[C@H](COP(=O)(O)OP(=O)(O)C(Cl)(Cl)P(=O)(O)O)[C@@H](O)[C@H]1O	light transmittance aggregometry	human patients, platelet-rich plasma	dose not given, 3 h, together with: ADP 5 µM	reference: patients	patients with IPA above 90%	2.6%
C=CC(=O)Nc1cc(Nc2nccc(Nc3cc(Cl)c(F)cc3C(C)(C)O)n2)c(OC)cc1N1CC[C@@H](N(C)C)C1		human, EGFR exon20ins NSCLC	dose not given, other subtypes		confirmed objective response rate	38.9%
Cc1n[nH]c2ccc(-c3cc(OC[C@@H](N)Cc4ccccc4)cnc3-c3ccoc3)cc12	kinase binding, competitor, MIB/MS competition, measured: RTK1	Candida albicans cell lysate	1 µM	reference: DMSO	log2 fold change	0.118
CCCCc1nc2c(N)nc3ccccc3c2n1Cc1ccc(CN)cc1	CD86 expression, flow cytometry	CD20+ B cells in PBMC, human	100 or 1000 nM		CD86 induction	increased
Cn1c(SC2=CS(=O)(=O)c3ccccc32)nc2ccccc21	CoA-CPM signal reduction, CPM fluorescence thiol	cell-free biochemical	assay interference counter-screen, together with: CoA replacing acetyl-CoA		IC50	> 125 µM
O=C(O)CNC(=O)Cc1ccccc1		ventricular cardiomyocytes, C57BL/6 mouse	dose not given, 0.512 s		sarcomere length	1.62 µm

Compound	assay	test system	setting	how to read	measurement	result
Cn1cc([C@H]2C[C@H]3CSC(N)=N[C@@]3(c3ccc(F)cc3F)CO2)cn1	measured: Aβx-42	Mus musculus wild-type, brain	subcutaneous, 10 mg/kg, 6 h		Aβ42 level	0.32 ng/g
OC(CCN1CCCCC1)(c1ccccc1)C1CC2C=CC1C2 (centres unmarked)	resting-state EEG	healthy elderly humans	oral, 4 mg, eyes closed, LS mean		EEG Alpha2-power Pz-O1	5 µV²
CCCCCCCCCC(=O)N[C@@H](Cc1c[nH]c2ccccc12)C(=O)N[C@H](CC(N)=O)C(=O)N[C@@H](CC(=O)O)C(=O)N[C@@H]1C(=O)NCC(=O)N[C@@H](CCCN)C(=O)N[C@@H](CC(=O)O)C(=O)N[C@H](C)C(=O)N[C@@H](CC(=O)O)C(=O)NCC(=O)N[C@H](CO)C(=O)N[C@@H]([C@H](C)CC(=O)O)C(=O)N[C@@H](CC(=O)c2ccccc2N)C(=O)O[C@@H]1C		bacterial membrane liposomes	50 µg/mL, 100 min		calcein leakage	34%
CCCCC1(CCCC)CN(c2ccccc2)c2cc(SC)c(OCC(=O)N[C@@H](C(=O)NCC(=O)O)c3ccccc3)cc2S(=O)(=O)C1	measured: 7α-hydroxy-4-cholesten-3-one	human, plasma	10 mg once daily, day 14		plasma C4	54.6 ng/mL
CC(C)c1c(C(=O)Nc2ccccc2)c(-c2ccccc2)c(-c2ccc(F)cc2)n1CC[C@@H](O)C[C@@H](O)CC(=O)O		cynomolgus monkey, female, serum	40 mg/kg or 25 mg/kg, day 176, 4224 h		triglycerides	47 mg/dL
C[C@H](Oc1ccc(Br)cc1-c1ccon1)C(=O)O	muscle velocity recovery cycles	human, tibialis anterior muscle	400 mg once daily, multiple doses, multiple ascending dose	reference: placebo	relative refractory period	-0.541 ms
FC(F)(F)c1cc(Nc2nc(Cl)nc(Cl)n2)cc(C(F)(F)F)c1	HPLC-MS		pH 10.2, together with: 50 mM N-α-acetyl-lysine		pseudo-first-order rate constant	8.9 h⁻¹
CC(C)NCC(O)c1ccc(O)c(O)c1 (centres unmarked)		ventricular cardiomyocytes, C57BL/6 mouse	dose not given, 0.472 s		sarcomere length	1.61 µm
COc1ncc(-c2nc3c(n2C(C)C)[C@H](c2ccc(Cl)cc2)N(c2cc(Cl)cn(C)c2=O)C3=O)c(OC)n1	International Working Group criteria	human acute myeloid leukemia patients	oral, 20 to 30 mg, response TF, low-dose		best overall response	85.7%
CN[C@@H]1COc2c(S(=O)(=O)NC(=O)Nc3c4c(cc5c3CCC5)CCC4)cnn2C1	measured: IL-1β	human participants, whole blood ex vivo	900 mg single dose, 24 h, together with: LPS/ATP	reference: baseline	inhibition	84.1%
C[C@@H](NC(=O)N1C(=O)[C@H](Cc2ccnc(N)c2)[C@H]1C(=O)O)C1CCCCC1		human, plasma	continuous intravenous infusion, 0.6 mg/kg/h, days 1 to 6 of 5-day infusion, mean		maximum prothrombin time	13.2 s
[Cl-].[Cl-].[Ru+2].c1cnc2c(c1)ccc1cccnc12.c1cnc2c(c1)ccc1cccnc12.c1csc(-c2ccc(-c3ccc(-c4ccc(-c5nc6c7cccnc7c7ncccc7c6[nH]5)s4)s3)s2)c1		air-saturated acetonitrile			singlet oxygen quantum yield	~88%
C=CCn1c(=O)c2cnc(Nc3ccc(N4CCN(C)CC4)cc3)nc2n1-c1ccc2c(n1)[C@@](O)(CC)CC2		MDA-MB-436 xenograft, NOD/SCID mouse	oral, 60 mg/kg once daily for 38 days, day 40	reference: control	tumour growth inhibition	60.2%
CO[C@H]1CC[C@H](N2C(=O)CNc3ncc(-c4ccc(C(C)(C)O)nc4)nc32)CC1	flow cytometry	stimulated T cells, human, blood	30 mg single dose, 3 h, median	reference: baseline	p4EBP1 change from baseline	-44%
C[C@H]1C[C@H]2CSC(N)=N[C@@]2(c2nc(NC(=O)c3ccc(OC(F)F)cn3)cs2)CO1	measured: total Aβ	healthy adults, plasma	15 mg once daily, day 7	reference: placebo	percent change from baseline	-52.2%
N=C(N)NCCC[C@H](NC(=O)[C@H](CCCNC(=N)N)NC(=O)[C@H](CCCCN)NC(=O)[C@H](CCC(N)=O)NC(=O)[C@H](CCCCN)NC(=O)[C@H](Cc1ccc(O)cc1)NC(=O)[C@@H](N)CCCCN)C(=O)N[C@@H](CO)C(=O)N[C@@H](Cc1ccc(O)cc1)C(=O)N[C@@H](CCCCN)C(=O)O	air evaporative stimulus	dentin hypersensitivity patients	10 µg/tooth single, day 22	reference: baseline, direction not given	median Schiff sensitivity score change	-1
Cc1ccc(NS(=O)(=O)C2CS(=O)(=O)c3ccccc32)nc1 (centres unmarked)	CoA-CPM signal reduction, CPM fluorescence thiol	cell-free biochemical	assay interference counter-screen, together with: CoA replacing acetyl-CoA		IC50	> 125 µM

Excerpt of the above:
Compound	assay	test system	setting	how to read	measurement	result
CCCCc1nc2c(N)nc3ccccc3c2n1Cc1ccc(CN)cc1	CD86 expression, flow cytometry	CD20+ B cells in PBMC, human	100 or 1000 nM		CD86 induction	increased
Cn1c(SC2=CS(=O)(=O)c3ccccc32)nc2ccccc21	CoA-CPM signal reduction, CPM fluorescence thiol	cell-free biochemical	assay interference counter-screen, together with: CoA replacing acetyl-CoA		IC50	> 125 µM
O=C(O)CNC(=O)Cc1ccccc1		ventricular cardiomyocytes, C57BL/6 mouse	dose not given, 0.512 s		sarcomere length	1.62 µm
Cn1cc([C@H]2C[C@H]3CSC(N)=N[C@@]3(c3ccc(F)cc3F)CO2)cn1	measured: Aβx-42	Mus musculus wild-type, brain	subcutaneous, 10 mg/kg, 6 h		Aβ42 level	0.32 ng/g
OC(CCN1CCCCC1)(c1ccccc1)C1CC2C=CC1C2 (centres unmarked)	resting-state EEG	healthy elderly humans	oral, 4 mg, eyes closed, LS mean		EEG Alpha2-power Pz-O1	5 µV²
